Measured values of several laboratories.
Every numbered part comes from another study and shows a few of its results, in no order. Several values in a cell are separate wells, animals, samples, runs or records.
Sequence of UniProt Q99640 (whole entry, looked up): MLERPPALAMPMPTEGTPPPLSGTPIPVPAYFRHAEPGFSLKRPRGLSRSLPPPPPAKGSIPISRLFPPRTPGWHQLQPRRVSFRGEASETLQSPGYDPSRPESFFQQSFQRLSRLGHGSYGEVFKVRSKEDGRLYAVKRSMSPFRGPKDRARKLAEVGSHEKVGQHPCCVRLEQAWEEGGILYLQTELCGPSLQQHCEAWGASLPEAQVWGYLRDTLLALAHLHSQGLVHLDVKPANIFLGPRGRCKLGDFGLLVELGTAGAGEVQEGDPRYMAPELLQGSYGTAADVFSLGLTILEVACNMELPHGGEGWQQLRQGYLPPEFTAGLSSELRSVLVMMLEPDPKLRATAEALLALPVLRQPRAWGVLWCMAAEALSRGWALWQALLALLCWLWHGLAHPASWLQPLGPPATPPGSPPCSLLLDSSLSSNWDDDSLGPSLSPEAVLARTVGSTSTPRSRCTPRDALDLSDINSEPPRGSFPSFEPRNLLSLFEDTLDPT
Sequence of UniProt Q12809 (whole entry, looked up): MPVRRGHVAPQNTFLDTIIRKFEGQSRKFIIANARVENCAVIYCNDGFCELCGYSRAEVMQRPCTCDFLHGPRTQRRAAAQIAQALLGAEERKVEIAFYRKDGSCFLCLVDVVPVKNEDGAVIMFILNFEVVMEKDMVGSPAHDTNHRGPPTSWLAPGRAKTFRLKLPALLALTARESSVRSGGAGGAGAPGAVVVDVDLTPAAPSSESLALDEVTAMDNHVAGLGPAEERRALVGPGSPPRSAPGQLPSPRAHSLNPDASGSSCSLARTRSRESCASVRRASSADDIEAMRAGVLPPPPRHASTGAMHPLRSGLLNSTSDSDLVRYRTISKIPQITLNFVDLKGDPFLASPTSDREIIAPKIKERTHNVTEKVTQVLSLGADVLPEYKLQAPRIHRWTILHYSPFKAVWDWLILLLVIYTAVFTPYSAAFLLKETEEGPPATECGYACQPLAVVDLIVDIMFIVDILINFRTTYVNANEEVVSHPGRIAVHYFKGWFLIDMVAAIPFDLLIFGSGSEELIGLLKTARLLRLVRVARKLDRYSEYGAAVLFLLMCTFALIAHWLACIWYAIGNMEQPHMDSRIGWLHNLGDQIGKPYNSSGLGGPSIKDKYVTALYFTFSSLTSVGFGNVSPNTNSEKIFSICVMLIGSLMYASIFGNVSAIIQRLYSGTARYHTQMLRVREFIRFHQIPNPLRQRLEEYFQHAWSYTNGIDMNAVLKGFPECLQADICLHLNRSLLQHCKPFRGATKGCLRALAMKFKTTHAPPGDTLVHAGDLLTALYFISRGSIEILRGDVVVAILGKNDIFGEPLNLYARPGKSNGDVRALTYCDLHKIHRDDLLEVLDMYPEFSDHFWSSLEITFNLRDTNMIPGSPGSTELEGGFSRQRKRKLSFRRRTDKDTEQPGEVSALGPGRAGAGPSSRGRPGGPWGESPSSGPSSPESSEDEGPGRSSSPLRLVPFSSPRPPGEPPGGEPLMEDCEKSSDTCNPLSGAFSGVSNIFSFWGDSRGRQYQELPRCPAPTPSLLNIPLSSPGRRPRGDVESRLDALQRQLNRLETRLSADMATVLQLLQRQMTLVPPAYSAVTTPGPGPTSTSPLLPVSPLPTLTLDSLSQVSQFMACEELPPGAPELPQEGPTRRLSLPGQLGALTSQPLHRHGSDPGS

Sample 1
SMILES: C[C@@H]1CN(c2ccc(-c3cc(C(=O)NCCOCCOCCOCCOCCOCCOCCNC(=O)/C=C/c4[nH]cc(C(=O)N[C@@H](CC(N)=O)c5ccc(F)c(Cl)c5)c4-c4ccc(Cl)cc4F)ccc3F)cc2NC(=O)c2ccc(F)cc2C(F)(F)F)C[C@H](C)N1C
Effect on: thermal unfolding
Method: differential scanning fluorimetry
Tested at: 5.5 µM
Direction: higher = more unfolded
Quantity: SYPRO Orange fluorescence
DCAF1: DDB1- and CUL4-associated factor 1 (DCAF1, Homo sapiens, UniProt Q9Y4B6)
Sequence of UniProt Q9Y4B6 (whole entry, looked up): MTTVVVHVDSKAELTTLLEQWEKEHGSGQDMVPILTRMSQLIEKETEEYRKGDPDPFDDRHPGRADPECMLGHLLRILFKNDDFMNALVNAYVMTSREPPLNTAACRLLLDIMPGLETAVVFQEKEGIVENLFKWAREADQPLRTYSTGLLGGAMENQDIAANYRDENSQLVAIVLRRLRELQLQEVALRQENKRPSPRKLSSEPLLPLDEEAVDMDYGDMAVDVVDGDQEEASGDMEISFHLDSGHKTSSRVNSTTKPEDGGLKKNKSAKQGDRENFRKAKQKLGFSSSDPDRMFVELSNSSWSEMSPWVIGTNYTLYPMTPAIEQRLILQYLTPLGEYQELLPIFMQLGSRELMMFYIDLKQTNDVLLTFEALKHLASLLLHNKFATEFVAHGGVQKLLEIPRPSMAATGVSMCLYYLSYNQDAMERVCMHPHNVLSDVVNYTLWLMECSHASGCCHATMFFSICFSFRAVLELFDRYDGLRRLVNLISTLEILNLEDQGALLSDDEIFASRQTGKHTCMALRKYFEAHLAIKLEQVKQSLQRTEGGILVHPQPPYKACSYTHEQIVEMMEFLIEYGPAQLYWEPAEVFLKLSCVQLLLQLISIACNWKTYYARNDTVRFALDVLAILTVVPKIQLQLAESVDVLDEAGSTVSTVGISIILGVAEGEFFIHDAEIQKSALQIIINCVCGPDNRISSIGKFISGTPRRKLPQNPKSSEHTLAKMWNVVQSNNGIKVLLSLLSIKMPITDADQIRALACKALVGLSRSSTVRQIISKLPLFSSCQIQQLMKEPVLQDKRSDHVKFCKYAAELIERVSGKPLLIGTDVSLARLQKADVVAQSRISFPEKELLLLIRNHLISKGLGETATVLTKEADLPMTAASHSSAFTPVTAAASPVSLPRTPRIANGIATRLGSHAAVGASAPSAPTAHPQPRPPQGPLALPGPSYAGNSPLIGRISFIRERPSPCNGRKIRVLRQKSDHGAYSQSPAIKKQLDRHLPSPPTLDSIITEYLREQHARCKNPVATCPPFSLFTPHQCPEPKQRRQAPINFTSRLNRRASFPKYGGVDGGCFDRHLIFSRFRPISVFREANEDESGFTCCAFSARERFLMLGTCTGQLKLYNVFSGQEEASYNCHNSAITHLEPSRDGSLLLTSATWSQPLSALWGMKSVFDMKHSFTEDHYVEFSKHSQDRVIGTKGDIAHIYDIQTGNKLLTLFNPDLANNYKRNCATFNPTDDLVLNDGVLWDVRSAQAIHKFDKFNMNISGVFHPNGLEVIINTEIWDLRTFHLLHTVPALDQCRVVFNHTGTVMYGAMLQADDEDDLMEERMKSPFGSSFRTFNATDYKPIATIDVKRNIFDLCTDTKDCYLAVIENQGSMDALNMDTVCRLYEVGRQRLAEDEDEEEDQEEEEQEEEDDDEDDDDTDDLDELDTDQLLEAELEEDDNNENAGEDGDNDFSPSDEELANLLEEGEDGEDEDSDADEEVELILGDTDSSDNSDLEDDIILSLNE
WDR5: WD repeat-containing protein 5 (WDR5, Homo sapiens, UniProt P61964)
target = DCAF1; temperature = 42.4 °C; result = 13100 a.u.
target = DCAF1; temperature = 32 °C; result = 8990 a.u.
target = DCAF1; temperature = 60.01 °C; result = 47200 a.u.
target = WDR5; temperature = 31.4 °C; result = 13700 a.u.
target = WDR5; temperature = 29.4 °C; result = 13500 a.u.
target = DCAF1; temperature = 60.41 °C; result = 48600 a.u.
target = DCAF1; temperature = 62.61 °C; result = 53600 a.u.

Sample 2
Compound: Cc1ncsc1-c1ccc(C(CO)NC(=O)C2CC(O)CN2C(=O)C(C(C)C)n2cc(-c3ccc(COc4c(-c5c(C)c(F)cc6[nH]ncc56)c(C5CC5)cc5c(N6CC7CC6CN7)nc(OC6CCOCC6)nc45)cc3)nn2)cc1 (stereo not shown)
Quantity: tumour volume
cell line = GP5d xenograft; host = mouse; dose = 30 mg/kg once weekly; time = day 4; result = 166 mm3 and 98.4 mm3 and 133 mm3 and 136 mm3 and 160 mm3
host = mouse, lung LXFA sample A PDX; dose = 10 mg/kg twice weekly; time = day 19; result = 189 mm3 and 96.1 mm3 and 96.4 mm3 and 443 mm3 and 96.6 mm3 and 316 mm3 and 249 mm3 and 160 mm3
host = mouse, PK-59 xenograft; dose = 10 mg/kg; time = day 14; result = 338 mm3 and 299 mm3 and 295 mm3 and 218 mm3 and 253 mm3
host = mouse, A-375 xenograft; route = sc; dose = 30 mg/kg once daily; time = day 10; result = 489 mm3 and 338 mm3 and 447 mm3 and 596 mm3 and 671 mm3
host = mouse, PK-59 xenograft; route = subcutaneous; dose = 30 mg/kg once daily; time = day 15; result = 45.5 mm3 and 44.5 mm3 and 47.9 mm3 and 61.3 mm3 and 44 mm3
host = mouse, HT-29 xenograft; route = sc; dose = 30 mg/kg once daily; time = day 1; result = 194 mm3 and 216 mm3 and 186 mm3 and 189 mm3 and 201 mm3
host = mouse, PK-59 xenograft; dose = 30 mg/kg; time = day 17; result = 81.5 mm3 and 88.3 mm3 and 135 mm3 and 114 mm3 and 94.4 mm3

Mixed results
SMILES = Cc1ccc(O)c(C)c1-c1cnc2[nH]c(-c3cnc(N4CCC(CN5CCN(c6ccc7c(c6)C(=O)N(C6CCC(=O)NC6=O)C7=O)CC5)CC4)nc3)cc2c1C#N (stereo not shown); tested on = HCC1569; assay = CDK1 Thr14 phosphorylation, in-cell western; setting = 1.37 nM; scale = lower = stronger inhibition; quantity = phospho-CDK1 (Thr14) level; result = 20.7 a.u. and 13.9 a.u.
SMILES = CCN1/C(=C/C=C2\CCCC(/C=C/C3=[N+](CC)c4ccccc4C3(C)C)=C2NCCCCN2CCC(C(=O)c3ccc(NS(C)(=O)=O)cc3)CC2)C(C)(C)c2ccccc21; tested on = Voltage-gated inwardly rectifying potassium channel KCNH2 (KCNH2, Homo sapiens, UniProt Q12809); assay = ligand displacement, radioligand; test system = HEK293; setting = 80 min, cell membranes; quantity = IC50; result = 30 nM
SMILES = Cc1ccc(O)c(C)c1-c1cnc2[nH]c(-c3cnc(N4CCC(CN5CCN(c6ccc(NC7CCC(=O)NC7=O)cc6F)CC5)CC4)nc3)cc2c1C#N (stereo not shown); test system = cynomolgus monkey, male, plasma; setting = oral, 10 mg/kg, intravenous and oral dosing; quantity = oral bioavailability; result = 5.1%
SMILES = Cc1ccc(O)c(C)c1-c1cnc2[nH]c(-c3cnc(N4CCC5(CC4)CC(N4CCN(c6ccc(N[C@H]7CCC(=O)N(C)C7=O)cc6F)CC4)CO5)nc3)cc2c1C#N (single isomer, unassigned); tested on = Membrane-associated tyrosine- and threonine-specific cdc2-inhibitory kinase (PKMYT1, Homo sapiens, UniProt Q99640); assay = degrader, automated immunoblot (Jess); setting = 0.15 nM, 24 h; quantity = degradation; result = 11.3%
SMILES = Cc1ccc(O)c(C)c1-c1cnc2[nH]c(-c3cnc(N4CCC5(CC4)CC(N4CCN(c6ccc(N[C@H]7CCC(=O)NC7=O)cc6F)CC4)CO5)nc3)cc2c1C#N (single isomer, unassigned); assay = KINOMEscan; test system = 403 non-mutant kinase panel; setting = 1000 nM, percent of control below 1; quantity = number of kinases bound; result = 1

Repeated from above (mixed results):
SMILES = Cc1ccc(O)c(C)c1-c1cnc2[nH]c(-c3cnc(N4CCC(CN5CCN(c6ccc7c(c6)C(=O)N(C6CCC(=O)NC6=O)C7=O)CC5)CC4)nc3)cc2c1C#N (stereo not shown); tested on = HCC1569; assay = CDK1 Thr14 phosphorylation, in-cell western; setting = 1.37 nM; scale = lower = stronger inhibition; quantity = phospho-CDK1 (Thr14) level; result = 20.7 a.u. and 13.9 a.u.
SMILES = CCN1/C(=C/C=C2\CCCC(/C=C/C3=[N+](CC)c4ccccc4C3(C)C)=C2NCCCCN2CCC(C(=O)c3ccc(NS(C)(=O)=O)cc3)CC2)C(C)(C)c2ccccc21; tested on = Voltage-gated inwardly rectifying potassium channel KCNH2 (KCNH2, Homo sapiens, UniProt Q12809); assay = ligand displacement, radioligand; test system = HEK293; setting = 80 min, cell membranes; quantity = IC50; result = 30 nM
